# Measurements gathered from unrelated publications.
# Protocols differ between the studies behind these lines.
# Nuclear receptor subfamily 2 group C member 2 ligand-binding domain: Nuclear receptor subfamily 2 group C member 2, ligand-binding domain (Homo sapiens, UniProt P49116)
# Chain of UniProt P49116 (whole entry, looked up): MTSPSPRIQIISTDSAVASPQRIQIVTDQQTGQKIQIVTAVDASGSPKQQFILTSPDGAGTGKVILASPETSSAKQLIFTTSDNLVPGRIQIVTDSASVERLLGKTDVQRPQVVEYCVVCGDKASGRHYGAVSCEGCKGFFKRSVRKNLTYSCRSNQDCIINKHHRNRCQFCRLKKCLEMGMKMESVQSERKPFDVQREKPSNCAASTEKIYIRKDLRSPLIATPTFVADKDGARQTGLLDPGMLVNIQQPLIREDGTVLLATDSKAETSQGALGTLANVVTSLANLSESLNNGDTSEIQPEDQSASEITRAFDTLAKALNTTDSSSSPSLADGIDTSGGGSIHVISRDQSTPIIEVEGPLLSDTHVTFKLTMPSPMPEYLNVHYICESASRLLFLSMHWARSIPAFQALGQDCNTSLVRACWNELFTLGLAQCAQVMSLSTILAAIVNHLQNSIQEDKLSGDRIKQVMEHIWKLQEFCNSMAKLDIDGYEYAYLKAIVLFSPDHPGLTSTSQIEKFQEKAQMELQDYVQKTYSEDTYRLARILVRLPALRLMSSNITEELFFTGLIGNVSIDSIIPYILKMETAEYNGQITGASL
SMILES,target or system,test,test system,conditions,measurement,result
O=c1oc2c(O)c(O)cc3c(=O)oc4c(O)c(O)cc1c4c23,OCI-Ly1,,,"1 µM, 120 h",viability,79.6%
C=CC(=O)NC1CCN(c2ncc3ncnc(Nc4ccc(Oc5ccc6c(c5)ncn6C)c(C)c4)c3n2)CC1,,,male patients,"oral, dose not given, on-treatment adverse events",patients with muscle twitching,0%
CNC(=O)c1cc(Oc2ccc(NC(=O)Nc3cc(C(C)(C)C)nn3-c3ccc4ncccc4c3)c(F)c2)ccn1,,,patients,"oral, dose not given, cycles 1 and 2, Low AUC subgroup",patients with visual abnormalities,20%
C[C@@H](Nc1cc(F)cc(F)c1)c1cc(C(=O)N(C)C)cc2c(=O)cc(N3CCOCC3)oc12,,refers to: Hematuria,advanced solid tumour patients,"oral, dose not given, dose finding",patients discontinuing for AE,0%
Cc1cc(NC2CCN(C(=O)OC3CCN(C(=O)/C=C/CN(C)C)C3)CC2)n2ncc(C(C)C)c2n1 (stereo not drawn),,"Phase I dose escalation CTCAE v4.0, refers to: maculo-papular rash",patients with advanced solid tumours,"dose not given, Total dosing any grade",patients with adverse event,6%
Cc1cc(-c2nnc(N)nc2-c2ccc(F)cc2)cc(Cl)n1,,refers to: Hypothyroidism,"IO-naive mCRPC patients, male","oral, dose not given, treatment-related, grade 1",patients with immune-mediated AE,0%
CNC(=O)c1ccc(-c2cnc3ncc(Cc4ccc5ncccc5c4)n3n2)cc1F,,"refers to: Nausea, all grades",cancer patients,"oral, dose not given, dose escalation, any causality",patients with adverse event,37%
C[C@@H](c1ccc2nccn2c1)n1nnc2ncc(-c3cnn(C)c3)nc21,,refers to: Pain grade ≥3,EGFR-mutant MET-altered NSCLC,"oral, dose not given, study",patients with treatment-related AEs,0%
CC(/C=C/C(=O)NO)=C\[C@@H](C)C(=O)c1ccc(N(C)C)cc1,OCI-Ly1,,,"1 µM, 120 h",viability,0.93%
CCOc1c([C@H](C)n2nc(C)c3c(N)ncnc32)cc(Cl)c(F)c1[C@@H]1CNC(=O)C1,,refers to: QTcF above 500 ms,previously treated B-cell malignancy,"oral, 45 mg once daily, baseline QTcF ≤450 ms",patients,0%
FC(F)(F)c1ccc(CNc2ccc(Cc3c[nH]c4ncc(Cl)cc34)cn2)cn1,,refers to: at least 1 adverse event,non-TGCT solid tumour patients,"oral, 1000 mg/day, grade 3 or higher",patients with treatment-related adverse event,35%
Clc1ccc(COC(Cn2ccnc2)c2ccc(Cl)cc2Cl)c(Cl)c1 (stereo not drawn),Nuclear receptor subfamily 2 group C member 2 ligand-binding domain,SPR imaging,,,Kd,53.1 nM
COc1cc(Nc2ncc3c(n2)-c2ccc(Cl)cc2C(c2c(F)cccc2OC)=NC3)ccc1C(=O)O,,"refers to: Anorexia, grade 1","cancer patients, phase 1/2","oral, dose not given, with: pembrolizumab",patients with adverse event,21%
CCO[C@H]1CCN(Cc2c(OC)cc(C)c3[nH]ccc23)[C@H](c2ccc(C(=O)O)cc2)C1,,refers to: Cough,"PNH patients, active haemolysis","oral, 200 mg twice daily, extension phase",patients with adverse event,33.3%
COc1ccc([C@@H](O)c2cc(-c3ncnc4cc(N5CCOCC5)ccc34)c(F)cc2Cl)nn1,,refers to: general and administration site disorders,locally advanced rectal cancer patients,"50 mg, with: capecitabine plus radiotherapy",patients with TEAE,100%
CC1(C)S[C@@H]2[C@H](NC(=O)[C@H](NC(=O)N3CCNC3=O)c3ccccc3)C(=O)N2[C@H]1C(=O)O,Nuclear receptor subfamily 2 group C member 2 ligand-binding domain,SPR imaging,,,Kd,2.14 nM
C=CC(=O)Nc1cc(Nc2nccc(-c3cn(C)c4ccccc34)n2)c(OC)cc1N(C)CCN(C)C,,refers to: treatment-related grade ≥3 Dyspnea,EGFR-mutant MET-altered NSCLC,"oral, dose not given, all",patients with adverse events,1%
O=C(Nc1nc2cccc(-c3ccc(CN4CCS(=O)(=O)CC4)cc3)n2n1)C1CC1,,refers to: ankle fracture,rheumatoid arthritis patients,"oral, 100 mg twice daily, 4 weeks",patients with TEAE,0%

# For quick reference, copied from above:
SMILES,target or system,test,test system,conditions,measurement,result
CC(/C=C/C(=O)NO)=C\[C@@H](C)C(=O)c1ccc(N(C)C)cc1,OCI-Ly1,,,"1 µM, 120 h",viability,0.93%
Cc1cc(NC2CCN(C(=O)OC3CCN(C(=O)/C=C/CN(C)C)C3)CC2)n2ncc(C(C)C)c2n1 (stereo not drawn),,"Phase I dose escalation CTCAE v4.0, refers to: maculo-papular rash",patients with advanced solid tumours,"dose not given, Total dosing any grade",patients with adverse event,6%
